Published values of several laboratories.
Numbered parts are unrelated; each lists some results of a single study. Several values in a cell are separate wells, animals, samples, runs or records.
UniProt Q9UQM7, sequence (whole entry, looked up): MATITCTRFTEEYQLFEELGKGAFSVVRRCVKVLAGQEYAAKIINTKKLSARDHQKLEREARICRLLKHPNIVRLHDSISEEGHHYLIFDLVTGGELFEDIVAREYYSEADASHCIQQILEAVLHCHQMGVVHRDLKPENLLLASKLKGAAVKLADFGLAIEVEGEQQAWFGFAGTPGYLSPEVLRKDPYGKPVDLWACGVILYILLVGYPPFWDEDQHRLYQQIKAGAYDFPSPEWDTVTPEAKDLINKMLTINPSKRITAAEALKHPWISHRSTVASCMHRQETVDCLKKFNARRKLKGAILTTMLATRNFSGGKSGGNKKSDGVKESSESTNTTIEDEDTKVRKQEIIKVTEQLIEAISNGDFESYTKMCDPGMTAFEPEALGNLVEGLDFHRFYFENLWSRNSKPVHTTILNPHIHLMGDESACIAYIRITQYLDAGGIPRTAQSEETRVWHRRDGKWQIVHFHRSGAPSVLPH
UniProt P42336, sequence (whole entry, unmodified, looked up): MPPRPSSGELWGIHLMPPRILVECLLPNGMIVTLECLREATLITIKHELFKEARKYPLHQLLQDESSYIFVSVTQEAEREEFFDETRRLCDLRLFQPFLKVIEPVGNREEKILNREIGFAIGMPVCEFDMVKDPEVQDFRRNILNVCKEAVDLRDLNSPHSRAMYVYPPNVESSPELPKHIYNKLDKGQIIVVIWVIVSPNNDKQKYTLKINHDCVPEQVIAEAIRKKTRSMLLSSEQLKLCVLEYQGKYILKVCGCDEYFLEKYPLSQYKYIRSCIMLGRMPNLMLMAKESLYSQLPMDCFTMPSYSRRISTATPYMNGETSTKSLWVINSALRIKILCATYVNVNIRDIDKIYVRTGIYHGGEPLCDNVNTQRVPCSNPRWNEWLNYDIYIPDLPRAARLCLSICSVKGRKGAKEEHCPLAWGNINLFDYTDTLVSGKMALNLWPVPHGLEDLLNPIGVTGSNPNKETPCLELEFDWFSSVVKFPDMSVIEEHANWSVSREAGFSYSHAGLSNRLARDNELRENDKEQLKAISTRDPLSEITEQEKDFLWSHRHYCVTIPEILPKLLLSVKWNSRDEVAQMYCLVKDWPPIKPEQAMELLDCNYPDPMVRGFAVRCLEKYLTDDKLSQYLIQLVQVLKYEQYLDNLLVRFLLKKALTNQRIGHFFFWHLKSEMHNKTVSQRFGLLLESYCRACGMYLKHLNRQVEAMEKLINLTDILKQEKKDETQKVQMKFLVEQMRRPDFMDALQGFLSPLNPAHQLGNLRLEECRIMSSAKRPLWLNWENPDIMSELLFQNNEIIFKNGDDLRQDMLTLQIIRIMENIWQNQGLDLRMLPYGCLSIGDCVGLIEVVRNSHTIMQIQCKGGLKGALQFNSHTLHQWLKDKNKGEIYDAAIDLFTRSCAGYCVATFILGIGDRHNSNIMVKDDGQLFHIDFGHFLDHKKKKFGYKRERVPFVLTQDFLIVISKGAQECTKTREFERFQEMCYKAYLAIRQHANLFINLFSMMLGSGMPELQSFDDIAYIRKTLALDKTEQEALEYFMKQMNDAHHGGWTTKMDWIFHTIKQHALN
UniProt Q02779, sequence (whole entry, looked up): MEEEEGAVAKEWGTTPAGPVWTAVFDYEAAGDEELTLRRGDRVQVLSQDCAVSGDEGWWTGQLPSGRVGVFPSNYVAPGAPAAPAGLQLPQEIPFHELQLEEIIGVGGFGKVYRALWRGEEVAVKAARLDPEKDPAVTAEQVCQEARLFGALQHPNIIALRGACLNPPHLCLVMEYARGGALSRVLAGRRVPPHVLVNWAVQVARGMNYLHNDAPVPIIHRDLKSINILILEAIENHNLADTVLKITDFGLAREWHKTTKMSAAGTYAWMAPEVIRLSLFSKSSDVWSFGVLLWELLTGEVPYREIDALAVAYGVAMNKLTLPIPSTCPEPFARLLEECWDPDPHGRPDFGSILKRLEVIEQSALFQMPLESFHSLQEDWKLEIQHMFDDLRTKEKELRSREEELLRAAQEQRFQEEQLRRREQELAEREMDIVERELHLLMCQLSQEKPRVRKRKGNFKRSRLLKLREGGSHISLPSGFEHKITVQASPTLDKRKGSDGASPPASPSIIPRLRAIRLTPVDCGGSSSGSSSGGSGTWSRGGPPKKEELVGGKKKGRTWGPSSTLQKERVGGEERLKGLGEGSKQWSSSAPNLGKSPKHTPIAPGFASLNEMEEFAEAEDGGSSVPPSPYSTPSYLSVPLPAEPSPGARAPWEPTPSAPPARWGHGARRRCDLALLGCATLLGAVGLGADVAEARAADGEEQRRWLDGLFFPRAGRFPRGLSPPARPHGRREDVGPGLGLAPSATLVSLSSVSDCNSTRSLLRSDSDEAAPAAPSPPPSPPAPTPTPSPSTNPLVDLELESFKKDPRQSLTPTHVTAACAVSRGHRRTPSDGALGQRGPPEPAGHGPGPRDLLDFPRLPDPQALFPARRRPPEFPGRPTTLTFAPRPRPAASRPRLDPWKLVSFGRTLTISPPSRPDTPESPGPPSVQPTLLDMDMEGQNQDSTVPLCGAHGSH
UniProt Q8WTQ7, sequence (whole entry, looked up): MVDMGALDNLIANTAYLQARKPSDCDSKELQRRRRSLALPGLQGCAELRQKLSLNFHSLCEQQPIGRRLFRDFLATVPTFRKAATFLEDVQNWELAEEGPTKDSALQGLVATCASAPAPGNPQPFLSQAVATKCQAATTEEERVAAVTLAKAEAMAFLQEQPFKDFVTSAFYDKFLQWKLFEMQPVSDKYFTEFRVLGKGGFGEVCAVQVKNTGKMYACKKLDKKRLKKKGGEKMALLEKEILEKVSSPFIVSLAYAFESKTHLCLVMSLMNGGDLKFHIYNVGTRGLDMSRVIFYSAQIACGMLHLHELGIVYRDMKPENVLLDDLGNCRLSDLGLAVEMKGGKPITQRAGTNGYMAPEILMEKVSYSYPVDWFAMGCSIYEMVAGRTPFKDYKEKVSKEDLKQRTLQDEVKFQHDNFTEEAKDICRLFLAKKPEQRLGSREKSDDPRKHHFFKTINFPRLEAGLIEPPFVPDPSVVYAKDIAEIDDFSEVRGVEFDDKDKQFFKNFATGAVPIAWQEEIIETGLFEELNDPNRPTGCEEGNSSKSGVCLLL
UniProt O75385, sequence (whole entry, looked up): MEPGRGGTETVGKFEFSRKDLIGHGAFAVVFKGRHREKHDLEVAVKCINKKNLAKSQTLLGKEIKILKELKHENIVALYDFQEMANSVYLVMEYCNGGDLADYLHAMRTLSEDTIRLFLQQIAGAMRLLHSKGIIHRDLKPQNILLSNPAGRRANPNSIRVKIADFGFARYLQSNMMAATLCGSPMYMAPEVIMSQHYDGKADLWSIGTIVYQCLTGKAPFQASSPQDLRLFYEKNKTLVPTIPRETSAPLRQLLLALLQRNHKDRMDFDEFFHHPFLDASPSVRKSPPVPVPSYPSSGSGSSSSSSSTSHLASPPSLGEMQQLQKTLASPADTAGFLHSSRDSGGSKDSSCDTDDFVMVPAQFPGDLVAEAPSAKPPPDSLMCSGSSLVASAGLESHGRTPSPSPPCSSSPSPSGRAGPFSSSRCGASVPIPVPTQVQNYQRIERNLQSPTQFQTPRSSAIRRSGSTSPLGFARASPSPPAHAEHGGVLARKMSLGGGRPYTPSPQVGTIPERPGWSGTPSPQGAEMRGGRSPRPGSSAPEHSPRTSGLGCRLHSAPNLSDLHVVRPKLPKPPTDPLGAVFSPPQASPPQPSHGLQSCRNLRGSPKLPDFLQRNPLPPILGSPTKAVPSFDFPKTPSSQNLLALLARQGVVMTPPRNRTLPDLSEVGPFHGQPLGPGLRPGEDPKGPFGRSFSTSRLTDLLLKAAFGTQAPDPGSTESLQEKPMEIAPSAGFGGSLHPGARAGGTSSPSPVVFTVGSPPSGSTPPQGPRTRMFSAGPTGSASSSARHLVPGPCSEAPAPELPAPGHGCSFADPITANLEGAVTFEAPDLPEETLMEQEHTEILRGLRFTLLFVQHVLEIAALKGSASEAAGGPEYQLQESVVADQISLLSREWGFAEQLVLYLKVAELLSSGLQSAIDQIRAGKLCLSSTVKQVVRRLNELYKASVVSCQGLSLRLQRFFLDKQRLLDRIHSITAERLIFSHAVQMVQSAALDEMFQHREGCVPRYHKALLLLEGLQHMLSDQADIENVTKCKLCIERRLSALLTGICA

Study 1 — observed: binding; method: radioligand binding; concentration: 10 µM
Target: D(3) dopamine receptor (DRD3, Homo sapiens, UniProt P35462)
UniProt P35462, sequence (whole entry, looked up): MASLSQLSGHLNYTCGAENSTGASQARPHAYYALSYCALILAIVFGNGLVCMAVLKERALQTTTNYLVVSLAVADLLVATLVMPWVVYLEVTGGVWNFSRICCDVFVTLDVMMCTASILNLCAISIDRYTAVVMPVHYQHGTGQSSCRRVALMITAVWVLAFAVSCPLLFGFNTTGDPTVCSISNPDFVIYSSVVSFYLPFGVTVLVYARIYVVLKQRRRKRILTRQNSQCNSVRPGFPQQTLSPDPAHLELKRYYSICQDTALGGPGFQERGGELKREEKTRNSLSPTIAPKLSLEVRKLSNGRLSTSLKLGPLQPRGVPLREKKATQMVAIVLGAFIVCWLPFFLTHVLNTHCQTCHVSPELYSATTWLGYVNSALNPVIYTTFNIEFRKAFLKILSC
SMILES | inhibition [%]
CC(=O)N1CCC(c2ccc(C(=O)NC(=N)N)cc2C(F)(F)F)CC1 | -13.4
CC1=C(C#N)C(c2ccc3c(c2)c(NC(=O)c2ccccc2C)nn3C)C(C#N)=C(C)N1 | 2.48
Nc1c(C(=O)NCc2ccc(C(=O)NCCCC3CCCCC3)cc2)cnn1-c1ccccc1 | 21.2
CC(C)CC(=O)N1CCc2nc(-c3ccc(Br)cc3)nc(N(C)Cc3ccccc3)c2C1 | 5.44
CC1=C(C#N)[C@@H](c2ccc3[nH]nc(C)c3c2)C(C#N)=C(c2ccc(Cl)cc2)N1 | -18.4
O=C(Nc1cccnn1)N1CCC(=Cc2cccc(Oc3ccc(C(F)(F)F)cn3)c2)CC1 | 4.08
Cc1cc(-n2nc(Cc3cc(F)cc(C(F)(F)F)c3)nc2C)ccc1C(N)=O | 3.4
O=C1CCc2cc(Nc3cc(OC4CCOCC4)c([N+](=O)[O-])cc3Cl)ccc2N1 | 35.4
COc1nc2ccc([C@@](O)(c3ccccc3)C3CCN(C(C)=O)CC3)cc2c(Cl)c1Cc1ccc(-n2cccn2)cc1 | -2.36
O=C([C@H]1C[C@H](O)CN1c1ccc(Cl)cc1)N1CC2COCC(C1)N2Cc1ccc(Cl)cc1 | 2.75
Cc1nc(C2CCN(C(=O)c3ccc(OC(F)(F)F)cc3N)CC2)c2ncc(N3CCN(C)CC3)cc2n1 | -8.88
CC(=O)Nc1c(F)cc(C(=O)N[C@H]2CC[C@H](O)CC2)cc1O[C@@H](C)c1ccccc1 | 39.1
Cc1nc(Cc2cccc(C(F)(F)F)c2)sc1-c1ccc(C(N)=O)nc1 | 6.21
Cc1cc(C)c(-n2ccn3nc(-c4cccnc4)cc23)cc1NC(=O)c1cc(C#N)cc(S(F)(F)(F)(F)F)c1 | -5.85
O=C(NC[C@@H]1[C@H]2CN(C(=O)OCc3cc(C(F)(F)F)cc(C(F)(F)F)c3)C[C@@H]12)c1ccc2[nH]nnc2c1 | 6.61
CN1C(=O)[C@@H](N2CCc3cn(Cc4ccccc4)nc3C2=O)COc2ccccc21 | -4.81
Cc1nccc(COC(=O)N2C[C@@H]3[C@@H](CNC(=O)c4ccc5[nH]nnc5c4)[C@@H]3C2)n1 | 1.07
CNC(=O)Nc1ccc2c(c1)[C@]1(CC2)OC(=O)N(CC(=O)N(Cc2ccc(F)cc2)[C@@H](C)C(F)(F)F)C1=O | 57.8
CN1CCN(C(=O)C(C)(C)c2ccc(C(=O)Nc3cn4cc(-c5ccncc5)ccc4n3)cc2)CC1 | 12.8
CCOC(=O)c1cc2cc(-c3cc(C(=O)NCc4ccc(C(=O)O)cc4)nn3C)ccc2[nH]1 | 2.74
CCCOc1ccc([C@H]2[C@H](C(=O)O)[C@@H](c3ccc4c(c3)OCO4)CN2CC(=O)Nc2c(CC)cccc2CC)cc1 | -5.43
CS(=O)(=O)NCC[C@H](NC(=O)c1cncc2c1cnn2-c1ccc(F)cc1)c1ccnc(S(C)(=O)=O)c1 | -13.8
CC(=O)c1c(NS(C)(=O)=O)c2cc(-c3ccc(Cl)cc3)c(-c3ccc(Cl)cc3Cl)nc2n(C)c1=O | 5.91
C[C@@H]1CN(c2cc(-c3nn(C)c4ccc(OC5(C)CC5)cc34)ncn2)C[C@H](C)O1 | 2.71
Cc1c(N2CCCC2)nc2ccc(Br)cc2c1C(=O)NC[C@H](CCC(=O)O)c1ccccc1Cl | -15.8

Study 2 — concentration: 1 µM
SMILES: Cc1ccc(NC(=O)c2ccnc(C(F)(F)F)c2)cc1-c1cc(OCCO)nc(N2CCOCC2)c1
target | method | measured | notes | baseline | remaining binding [%]
ULK1 (Homo sapiens, UniProt O75385) | competitive binding panel |  |  | vehicle | 85
TBK1 (Homo sapiens, UniProt Q9UHD2) | competitive binding panel |  |  | vehicle | 78
BMP2K (Homo sapiens, UniProt Q9NSY1) | competitive binding |  | BIKE |  | 82
GRK7 (Homo sapiens, UniProt Q8WTQ7) | competitive binding panel |  |  | vehicle | 99
CAMK2A (Homo sapiens, UniProt Q9UQM7) | competitive binding panel |  |  | vehicle | 99
MAP3K10 (Homo sapiens, UniProt Q02779) | competitive binding panel | MLK2 |  | vehicle | 94
PDGFRB (Homo sapiens, UniProt P09619) | competitive binding panel |  |  | vehicle | 0.1
PRPF4B (Homo sapiens, UniProt Q13523) | competitive binding panel | PRP4 |  | vehicle | 100
NTRK3 (Homo sapiens, UniProt Q16288) | competitive binding |  | TRKC |  | 98
PIK3CA (Homo sapiens, UniProt P42336, M1043I) | competitive binding panel |  |  | vehicle | 94
KDR (Homo sapiens, UniProt P35968) | competitive binding |  | VEGFR2 |  | 85

Study 3 — observed: enzyme activity; action: inhibitor; concentration: 0.5 µM; baseline: control
Target: Serine/threonine-protein kinase 4 (STK4, Homo sapiens, UniProt Q13043)
Construct (Q13043 1-487): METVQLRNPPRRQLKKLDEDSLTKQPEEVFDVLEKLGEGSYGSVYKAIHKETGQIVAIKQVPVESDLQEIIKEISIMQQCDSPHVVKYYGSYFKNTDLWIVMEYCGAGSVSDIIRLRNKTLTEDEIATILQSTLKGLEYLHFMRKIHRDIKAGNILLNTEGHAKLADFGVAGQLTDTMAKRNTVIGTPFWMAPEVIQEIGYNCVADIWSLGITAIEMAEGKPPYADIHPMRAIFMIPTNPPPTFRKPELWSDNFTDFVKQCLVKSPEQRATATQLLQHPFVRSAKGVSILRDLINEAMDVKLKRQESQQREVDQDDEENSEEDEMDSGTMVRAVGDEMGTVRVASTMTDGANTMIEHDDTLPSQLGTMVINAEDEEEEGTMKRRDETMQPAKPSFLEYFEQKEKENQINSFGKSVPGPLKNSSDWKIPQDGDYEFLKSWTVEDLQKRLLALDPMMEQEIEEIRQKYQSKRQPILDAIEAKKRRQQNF
Structure (SMILES) | remaining activity [%]
Cn1cnc2cc3c(Nc4cccc(Br)c4)ncnc3cc21 | 94.2
Cc1ccc(NC(=O)c2ccc(CN3CCN(C)CC3)cc2)cc1Nc1nccc(-c2cccnc2)n1 | 101
CCN1/C(=C/C(C)=O)Sc2ccc(OC)cc21 | 97.8
C[S+]([O-])c1ccc(-c2nc(-c3ccncc3)c(-c3ccc(F)cc3)[nH]2)cc1 (stereo not drawn) | 101
O=C1NC(=O)/C(=C/c2ccc3nccnc3c2)S1 | 95
COc1ccc(-c2cnc3c(-c4ccsc4)cnn3c2)cc1 | 97.3
CCC(=O)Nc1ccc2ncnc(Nc3cccc(Br)c3)c2c1 | 97.1
CC(C)[C@H](CO)Nc1nc(Nc2cccc(Cl)c2)c2ncn(C(C)C)c2n1 | 87.7
CC(=O)O/N=C1/C(c2c(O)[nH]c3cc(Br)ccc23)=Nc2ccccc21 | 54.2
COc1cc2ncnc(Nc3ccc(OCc4ccccc4)cc3)c2cc1OC | 101
O=C(Nc1ccc(Cl)cc1)c1ccccc1NCc1ccncc1 | 98.7
O=c1cc(N2CCOCC2)oc2c1ccc1ccccc12 | 99.5
CN(C)CCCn1cc(C2=C(c3c[nH]c4ccccc34)C(=O)NC2=O)c2ccccc21 | 25.1
Cc1nc(Nc2ncc(C(=O)Nc3c(C)cccc3Cl)s2)cc(N2CCN(CCO)CC2)n1 | 96.3
COc1cc2ncnc(N3CCN(C(=O)Nc4ccc(Oc5ccccc5)cc4)CC3)c2cc1OC | 97.1
CCOc1cc2ncnc(Nc3cccc(Br)c3)c2cc1OCC | 98.5
Cn1cc(/C=C2\C(=O)Nc3ccc(S(N)(=O)=O)cc32)c2ccccc21 | 10.7
COc1cc2ncc(-c3ccccc3)nc2cc1OC | 96.3
CC(C)c1nn(-c2c(Cl)cccc2Cl)c2nc(Cc3ccc(OCCO)cc3)[nH]c(=O)c12 | 96.7
Nc1[nH]nc2nnc(-c3c(-c4ccccc4)nn4ccccc34)cc12 | 99.1
COc1ccc(Cl)cc1NC(=O)Nc1cc(C)nc2ccccc12 | 98.7

Study 4 — observed: enzyme activity; action: inhibitor; concentration: 10 µM
Target: Calcium/calmodulin-dependent protein kinase type II subunit alpha (CAMK2A, Homo sapiens, UniProt Q9UQM7)
Compound | inhibition
CC1(C)CC[C@]23CO[C@@]4(C=C[C@@H]5[C@@]6(C)CC[C@H](O)[C@@](C)(CO)[C@@H]6CC[C@@]5(C)[C@]4(C)C[C@@H]2O)[C@@H]3C1 | -3%
CCCNC(=O)NS(=O)(=O)c1ccc(Cl)cc1 | 0%
C[C@H]1[C@H](C)CC[C@]2(CO)CC[C@]3(C)C(=CC[C@@H]4[C@@]5(C)CC[C@H](O)C(C)(C)[C@@H]5CC[C@]43C)[C@H]12 | -2%
CC[C@@H]1C(=O)N(C)c2cnc(Nc3ccc(C(=O)N[C@H]4CC[C@H](N5CCN(CC6CC6)CC5)CC4)cc3OC)nc2N1C(C)C | 22%
CC1(C)CC[C@]2(C(=O)O)CC[C@]3(C)C(=CC[C@@H]4[C@@]5(C)C[C@@H](O)[C@H](O)C(C)(C)[C@@H]5CC[C@]43C)[C@@H]2C1 | -23%
COC(=O)C1=CO[C@@H](O[C@@H]2O[C@H](CO)[C@@H](O)[C@H](O)[C@H]2O)[C@@H]2[C@@]3(C)O[C@H]3[C@@H](O)[C@]12O | -17%
CCCCCCCCCCCCCCCCCCOC(=O)[C@@]1(C)CC[C@]2(C)CC[C@]3(C)C(=CC(=O)[C@@H]4[C@@]5(C)CC[C@H](O)C(C)(C)[C@@H]5CC[C@]43C)[C@@H]2C1 | -5%
O=c1c(O[C@@H]2O[C@H](CO)[C@H](O)[C@H](O)[C@H]2O[C@@H]2O[C@H](CO)[C@@H](O)[C@H](O)[C@H]2O)c(-c2ccc(O)cc2)oc2cc(O)cc(O)c12 | 18%
COC(=O)[C@H]1[C@H]2C[C@@H]3c4[nH]c5ccccc5c4CCN3C[C@H]2C[C@@H](OC(=O)c2cc(OC)c(OC)c(OC)c2)[C@@H]1OC | 39%
COC(=O)c1ccc2c(c1)NC(=O)/C2=C(\Nc1ccc(N(C)C(=O)CN2CCN(C)CC2)cc1)c1ccccc1 | 0.05% and 0.12%
O=C(Nc1ccc([N+](=O)[O-])cc1Cl)c1cc(Cl)ccc1O | -5%
CNC(=S)NC | -7%
Cc1cc(O)cc(O)c1 | -13%
COc1cc2c(cc1OC)[C@H]1CC(=O)[C@H](CC(C)C)CN1CC2 (racemic) | 0.06%
O=C(O)c1ccc(CO)o1 | -2%

For quick reference, copied from above (study 1):
SMILES | inhibition [%]
Cc1cc(C)c(-n2ccn3nc(-c4cccnc4)cc23)cc1NC(=O)c1cc(C#N)cc(S(F)(F)(F)(F)F)c1 | -5.85
O=C(NC[C@@H]1[C@H]2CN(C(=O)OCc3cc(C(F)(F)F)cc(C(F)(F)F)c3)C[C@@H]12)c1ccc2[nH]nnc2c1 | 6.61
CN1C(=O)[C@@H](N2CCc3cn(Cc4ccccc4)nc3C2=O)COc2ccccc21 | -4.81
Cc1nccc(COC(=O)N2C[C@@H]3[C@@H](CNC(=O)c4ccc5[nH]nnc5c4)[C@@H]3C2)n1 | 1.07
CNC(=O)Nc1ccc2c(c1)[C@]1(CC2)OC(=O)N(CC(=O)N(Cc2ccc(F)cc2)[C@@H](C)C(F)(F)F)C1=O | 57.8
CN1CCN(C(=O)C(C)(C)c2ccc(C(=O)Nc3cn4cc(-c5ccncc5)ccc4n3)cc2)CC1 | 12.8
CCOC(=O)c1cc2cc(-c3cc(C(=O)NCc4ccc(C(=O)O)cc4)nn3C)ccc2[nH]1 | 2.74
CCCOc1ccc([C@H]2[C@H](C(=O)O)[C@@H](c3ccc4c(c3)OCO4)CN2CC(=O)Nc2c(CC)cccc2CC)cc1 | -5.43
